Experimental data collected from several papers.
Each numbered part is a random draw from the data of one study; scales do not carry over between parts. Substitutions count along the parent as printed.

Set 1 — target: tungstate, free oxyanion; technique: microfluidic competitive inhibition; sample: in vitro, cell-free expressed; tested at: not given; direction: lower = stronger binding
Notes: derived from inhibition constants, unchanged parent 2230 nM
Starting sequence: PafA, mature enzyme, eGFP fusion (Elizabethkingia meningoseptica, UniProt Q9KJX5); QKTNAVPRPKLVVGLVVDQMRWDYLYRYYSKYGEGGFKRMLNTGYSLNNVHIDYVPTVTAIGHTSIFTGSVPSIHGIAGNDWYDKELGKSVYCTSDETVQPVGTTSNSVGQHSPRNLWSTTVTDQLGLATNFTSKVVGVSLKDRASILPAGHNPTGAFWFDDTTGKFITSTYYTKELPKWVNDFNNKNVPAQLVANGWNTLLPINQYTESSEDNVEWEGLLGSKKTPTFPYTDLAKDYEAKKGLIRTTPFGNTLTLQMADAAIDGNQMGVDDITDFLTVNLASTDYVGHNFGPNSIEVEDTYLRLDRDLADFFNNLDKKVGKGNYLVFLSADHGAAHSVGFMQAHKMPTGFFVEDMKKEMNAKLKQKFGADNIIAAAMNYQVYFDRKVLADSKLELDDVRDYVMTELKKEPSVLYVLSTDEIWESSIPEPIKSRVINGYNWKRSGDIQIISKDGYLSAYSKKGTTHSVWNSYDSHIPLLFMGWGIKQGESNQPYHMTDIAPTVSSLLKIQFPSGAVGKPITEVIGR
| Substitution | oxyanion analog dissociation constant |
| --- | --- |
| I273G | 2.12 µM |
| A377G | 1.61 µM |
| T133G | 1.97 µM |
| V58A | 4.41 µM |

Set 2 — technique: universal PBM; molecule type: double-stranded DNA, one strand shown; sample: in vitro; tested at: 600 nM; direction: higher = stronger binding
Target: Sal-like protein 4, full length isoform A (SALL4, Homo sapiens, UniProt Q9UJQ4, residues 1-1053)
Chain of UniProt Q9UJQ4 (whole entry, looked up): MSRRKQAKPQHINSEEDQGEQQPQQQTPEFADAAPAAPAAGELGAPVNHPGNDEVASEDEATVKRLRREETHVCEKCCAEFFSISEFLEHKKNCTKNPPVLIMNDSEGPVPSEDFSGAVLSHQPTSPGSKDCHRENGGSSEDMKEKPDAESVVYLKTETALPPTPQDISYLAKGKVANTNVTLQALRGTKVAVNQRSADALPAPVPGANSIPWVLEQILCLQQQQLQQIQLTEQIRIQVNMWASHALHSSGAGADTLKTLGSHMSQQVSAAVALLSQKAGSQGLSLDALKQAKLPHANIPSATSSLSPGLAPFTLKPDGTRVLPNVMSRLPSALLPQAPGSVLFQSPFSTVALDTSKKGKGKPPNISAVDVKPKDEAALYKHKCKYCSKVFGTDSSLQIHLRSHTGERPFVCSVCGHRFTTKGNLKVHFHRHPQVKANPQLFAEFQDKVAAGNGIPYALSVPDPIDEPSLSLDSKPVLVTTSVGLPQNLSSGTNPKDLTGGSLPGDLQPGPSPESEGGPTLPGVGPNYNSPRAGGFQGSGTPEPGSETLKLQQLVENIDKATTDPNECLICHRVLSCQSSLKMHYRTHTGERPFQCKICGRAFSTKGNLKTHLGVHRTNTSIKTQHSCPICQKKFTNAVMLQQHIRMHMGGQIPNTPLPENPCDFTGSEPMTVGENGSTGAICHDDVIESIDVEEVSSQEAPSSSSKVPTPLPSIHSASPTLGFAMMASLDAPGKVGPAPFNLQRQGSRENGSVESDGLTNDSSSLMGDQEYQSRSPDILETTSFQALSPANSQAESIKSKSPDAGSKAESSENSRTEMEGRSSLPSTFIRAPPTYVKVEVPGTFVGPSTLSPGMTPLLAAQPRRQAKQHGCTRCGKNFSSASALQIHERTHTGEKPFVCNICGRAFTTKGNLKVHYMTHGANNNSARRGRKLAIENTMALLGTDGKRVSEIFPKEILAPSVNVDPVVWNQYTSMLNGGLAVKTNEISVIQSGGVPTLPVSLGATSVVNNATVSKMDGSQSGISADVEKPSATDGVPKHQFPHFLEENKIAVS
Notes: 8-mer, flanks averaged, mean of replicates
| Sequence | E-score |
| --- | --- |
| GGAGTAAC | -0.0976 |
| AGGTTGAT | -0.0968 |
| GTCGCGAC | -0.0576 |
| TACCGGTA | -0.00895 |
| AACGTGCA | 0.0219 |
| GTAAATAA | 0.35 |
| CCCGCTGA | -0.413 |
| CCATGAGC | -0.245 |

Set 3 — technique: RNA Bind-n-Seq; molecule type: RNA; sample: in vitro; tested at: 20 nM; notes: 6-mer, flanks averaged, single round; together with: 150 mM KCl; reference: input library; direction: higher = stronger binding
Target: TAR DNA-binding protein 43, full length, His tag (TARDBP, Homo sapiens, UniProt Q13148, residues 1-414)
| Sequence | 6-mer enrichment (R) |
| --- | --- |
| CAUUGU | 0.608 |
| CCAGAA | 0.709 |
| AGAUAC | 0.628 |
| GGAGAG | 3.9 |
| AAAGCC | 0.627 |
| UGACGA | 0.814 |
| AGAGUA | 0.851 |
| AAGUUC | 0.549 |

Set 4 — target: CCNA1, cyclin fold, Cln2 fusion (human); technique: yeast growth competition, sequencing; sample: yeast; notes: weak parent motif; reference: not given; direction: higher = stronger binding
Starting sequence: viral docking peptide; KGVKRKLFAEDSS; partner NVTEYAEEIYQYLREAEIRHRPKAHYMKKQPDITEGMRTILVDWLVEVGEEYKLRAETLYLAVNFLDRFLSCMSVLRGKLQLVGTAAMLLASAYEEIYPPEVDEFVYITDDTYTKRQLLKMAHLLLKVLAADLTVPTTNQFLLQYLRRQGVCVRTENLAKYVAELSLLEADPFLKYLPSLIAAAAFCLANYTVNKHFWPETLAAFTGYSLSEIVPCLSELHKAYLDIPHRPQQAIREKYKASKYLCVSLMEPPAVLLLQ
| Substitution | normalised enrichment score |
| --- | --- |
| S12N | 1.38 |
| L7Q | 0.349 |
| A9E | 1.32 |
| L7V | 0.466 |
| F8N | -0.0262 |
| A9I | 1.14 |
| G2H | 1.1 |
| S12H | 0.665 |
| K6R | 1.73 |
| A9C | 0.826 |
| K6I | 0.413 |
| K6P | 0.0886 |
| A9G | 1.2 |
| G2F | 1.36 |
| A9Q | 1.26 |
| S12A | 0.964 |
| S12I | 1.3 |
| L7T | 0.691 |
| D11I | 0.686 |
| F8K | 0.104 |
| E10I | 0.52 |
| F8G | 0.292 |
| K4M | -0.346 |

Set 5 — technique: RNA Bind-n-Seq; molecule type: RNA; sample: in vitro; tested at: 200 nM; notes: whole 134-nt RNA, ends assumed; together with: 150 mM LiCl; reference: input library; direction: higher = stronger binding; each molecule: 7-deaza-guanosine replaces G
Target: Fragile X messenger ribonucleoprotein 1, C-terminal low-complexity region (Fmr1, Mus musculus, UniProt P35922)
All sequences stand within: GGGAGUUCUACAGUCCGACGAUC … UGGAAUUCUCGGGUGUCAAGG
| Sequence | log2 enrichment |
| --- | --- |
| AAGUCCUGUGCUACACAUCGUAUGUACCGAAUCGGAAAAGGGGAAAAGGAAAAGGGAAAGUAUUAUGUUACGCCGUUCGGAUCUGCACUU | -0.565 |
| CCUCAAGUCCUGUGCUACACAUCGUAUGUACCGAAUCGGCCGGCCGGCCGGGGAAAGUAUUAUGUUACGCCGUUCGGAUCUGCACUUCCA | 0.0491 |
| UUAGGGCCAAUCUUCGUCAAUAUGGUUUAGAGAAGUAUUACCUUGAUGUCCUGGUUUCAGAUGCAUCUAAACCUUCCUGGAGGAAGGGCA | -1.45 |
| AUUCUUCAUUGAGGGUGAGGAUCUCCCAAUGGGAGACUGCUCUGAAAAGAGCAUGUGCUUUUUGAAUUAGAUAACCUACUAUAAUCAUGG | -2.14 |
| UAACUUUAGAGGAGGAUCUGAUGGAUAUGGCAGUGGACUUGGAUUUGGGGAUGGCUAUAAUGGGUAUGGAGGAGGACCUGGAGGUGGCAA | 0.291 |
| CAAGUCCUGUGCUACACAUCGUAUGUACCGAAUCGGGCCCGGGCCCGGGGCCCGGGAAAGUAUUAUGUUACGCCGUUCGGAUCUGCACUU | -2.71 |
| UGUUGAUGCUGUAAUUGCUGAACUUAAAAAGCAGUCUAAACCUGUGACCACCCCUGAAGAAAUUGCACAGGUAAGGACUUAACAUGUUAC | 0.565 |
| AAGUCCUGUGCUACACAUCGUAUGUACCGAAUCGGGUUUGGGUUUGGGUUUUUGGGAAAGUAUUAUGUUACGCCGUUCGGAUCUGCACUU | -1.62 |

Further values, each from its own experiment
| Molecule | target | test | test system | setting | how to read | measurement | value |
| --- | --- | --- | --- | --- | --- | --- | --- |
| PhoQ, residues 284 288 289 292 302 303 AGHLVA | PhoP, residues 12 14 15 18 19 FWNTL (Escherichia coli, UniProt P23836) | Sort-seq, item: YFP reporter | E. coli | PhoQ-PhoP variant library, together with: 10 µM Mg2+ | reference: high Mg2+ state, higher = stronger signaling | fold induction | 1.19 |

Repeated from above (set 5):
| Sequence | log2 enrichment |
| --- | --- |
| AAGUCCUGUGCUACACAUCGUAUGUACCGAAUCGGAAAAGGGGAAAAGGAAAAGGGAAAGUAUUAUGUUACGCCGUUCGGAUCUGCACUU | -0.565 |
| CCUCAAGUCCUGUGCUACACAUCGUAUGUACCGAAUCGGCCGGCCGGCCGGGGAAAGUAUUAUGUUACGCCGUUCGGAUCUGCACUUCCA | 0.0491 |
| UUAGGGCCAAUCUUCGUCAAUAUGGUUUAGAGAAGUAUUACCUUGAUGUCCUGGUUUCAGAUGCAUCUAAACCUUCCUGGAGGAAGGGCA | -1.45 |
| AUUCUUCAUUGAGGGUGAGGAUCUCCCAAUGGGAGACUGCUCUGAAAAGAGCAUGUGCUUUUUGAAUUAGAUAACCUACUAUAAUCAUGG | -2.14 |
| UAACUUUAGAGGAGGAUCUGAUGGAUAUGGCAGUGGACUUGGAUUUGGGGAUGGCUAUAAUGGGUAUGGAGGAGGACCUGGAGGUGGCAA | 0.291 |
| CAAGUCCUGUGCUACACAUCGUAUGUACCGAAUCGGGCCCGGGCCCGGGGCCCGGGAAAGUAUUAUGUUACGCCGUUCGGAUCUGCACUU | -2.71 |
| UGUUGAUGCUGUAAUUGCUGAACUUAAAAAGCAGUCUAAACCUGUGACCACCCCUGAAGAAAUUGCACAGGUAAGGACUUAACAUGUUAC | 0.565 |
| AAGUCCUGUGCUACACAUCGUAUGUACCGAAUCGGGUUUGGGUUUGGGUUUUUGGGAAAGUAUUAUGUUACGCCGUUCGGAUCUGCACUU | -1.62 |
